Results from different studies.
A part holds a random share of what one study measured. Substitutions count along the parent as printed.

Series 1
Target: CCNE2, cyclin fold, Cln2 fusion (human)
Method: yeast growth competition, sequencing
Sample: yeast
Notes: strong parent motif
Baseline: not given
Direction: higher = stronger binding
Quantity: normalised enrichment score
Starting sequence: viral docking peptide; TSVRRALFTGGSD; partner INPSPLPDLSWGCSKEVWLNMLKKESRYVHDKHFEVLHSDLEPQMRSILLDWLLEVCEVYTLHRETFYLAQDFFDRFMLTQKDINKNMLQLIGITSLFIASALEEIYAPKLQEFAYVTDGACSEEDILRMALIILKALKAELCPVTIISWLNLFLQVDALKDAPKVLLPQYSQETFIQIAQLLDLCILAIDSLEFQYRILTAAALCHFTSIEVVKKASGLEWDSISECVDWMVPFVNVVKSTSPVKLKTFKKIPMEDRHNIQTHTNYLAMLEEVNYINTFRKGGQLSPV
TSVRRAFFTGGSD [L7F]: 0.22
TSVRRALFTSGSD [G10S]: 4.37
TSVRKALLTGGSD [R5K F8L]: 0.217
TSVRRALFTGISD [G11I]: 3.43
TSVRRALFTQGSD [G10Q]: 4.04
TSVRRALFIGGSD [T9I]: 3.43
TSSRRALFTGGSD [V3S]: 0.179
TSVRRDLFTGGSD [A6D]: 0.545
TSVRHALFTGGSD [R5H]: 0.27
TSVRRATFTGGSD [L7T]: 0.179
TSCRRALFTGGSD [V3C]: 3.2
TSVRRALFTGDSD [G11D]: 4.53
ASVRRALFTGGSD [T1A]: 4.59
TSVRRALFTGGGD [S12G]: 3.76
TSVRPALFTGGSD [R5P]: -0.513
TSVGRALFTGGSD [R4G]: -0.325
TSVRRAYFTGGSD [L7Y]: 0.663
TSVRRALFTGSSD [G11S]: 3.96
TSVRCALFTGGSD [R5C]: 0.435
TSVRRALFTFGSD [G10F]: 2.21

Series 2
Target: Interferon regulatory factor 7, full length, phosphomimetic (IRF7, Homo sapiens, UniProt Q92985, residues 1-503, S471D/S472D/S475D/S476D/S477D/S483D/S484D/S487D)
Chain of UniProt Q92985 (whole entry, unmodified, looked up): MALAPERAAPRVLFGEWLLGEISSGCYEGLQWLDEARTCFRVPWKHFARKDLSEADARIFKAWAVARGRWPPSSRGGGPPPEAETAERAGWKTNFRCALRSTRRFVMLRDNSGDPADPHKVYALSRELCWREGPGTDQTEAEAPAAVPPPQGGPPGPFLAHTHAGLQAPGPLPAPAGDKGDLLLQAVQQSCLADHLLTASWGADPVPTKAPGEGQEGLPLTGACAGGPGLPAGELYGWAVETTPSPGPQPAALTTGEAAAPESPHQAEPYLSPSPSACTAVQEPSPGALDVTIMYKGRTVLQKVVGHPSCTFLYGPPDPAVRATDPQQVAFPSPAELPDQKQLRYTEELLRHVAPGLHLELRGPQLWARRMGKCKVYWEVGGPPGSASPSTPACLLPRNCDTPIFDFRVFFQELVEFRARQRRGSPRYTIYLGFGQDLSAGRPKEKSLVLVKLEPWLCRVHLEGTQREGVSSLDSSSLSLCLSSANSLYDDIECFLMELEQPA
Method: protein-binding microarray
Molecule type: double-stranded DNA, one strand shown
Sample: in vitro
Tested at: 2200 nM top
Notes: 60-bp whole probe
With: salmon DNA 0.4 mg/ml
Baseline: random background probes
Direction: higher = stronger binding
Quantity: fitted relative affinity
Constant ends, left off below: GCCTAGCAC … GTCTTGATTCGCTTGACGCTGCTG
GACGGACTGCTTATCCTTACGTGCTAG: 0.453 z-score
TTAGGAATCGGTATCGGTTAGTGCTAG: 0.402 z-score
TTAGGACTGGGGACTTGGTTAGTGCTA: -0.875 z-score
TTAGGTTCCGGTTTTGGTTAGTGCTAG: 3.83 z-score
TTAGGTATCGGTCTCGGTTGGTGCTAG: 0.962 z-score
TCAGGTCTCCTTCTCCTTTAGTGCTAG: 1.44 z-score
GACGATACCAGTTTCGAGACGTGCTAG: 3.7 z-score
TTAGATTTCAGTTCCGATAAGTGCTAG: 1.44 z-score

Series 3
Target: BATF2, bZIP domain (human)
Method: DHFR protein complementation
Sample: yeast
Notes: single substitutions, most at no-binding floor
Baseline: wild-type JUN-FOS pair
Direction: higher = stronger binding
Quantity: binding fitness
Starting sequence: JUN, bZIP domain (human); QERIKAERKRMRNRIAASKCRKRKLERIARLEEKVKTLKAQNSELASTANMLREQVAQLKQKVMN; partner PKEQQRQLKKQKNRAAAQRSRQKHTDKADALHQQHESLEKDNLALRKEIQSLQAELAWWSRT
Q58R: -0.407 natural log
I28F: -0.635 natural log
S43H: -0.277 natural log
A49D: -1.32 natural log
A29T: -0.366 natural log
K36V: -0.388 natural log
S43A: -0.0682 natural log
R53N: -1.36 natural log

Series 4
Target: UDP-N-acetylglucosamine--peptide N-acetylglucosaminyltransferase 110 kDa subunit (OGT, Homo sapiens, UniProt O15294)
Chain of UniProt O15294 (whole entry, looked up): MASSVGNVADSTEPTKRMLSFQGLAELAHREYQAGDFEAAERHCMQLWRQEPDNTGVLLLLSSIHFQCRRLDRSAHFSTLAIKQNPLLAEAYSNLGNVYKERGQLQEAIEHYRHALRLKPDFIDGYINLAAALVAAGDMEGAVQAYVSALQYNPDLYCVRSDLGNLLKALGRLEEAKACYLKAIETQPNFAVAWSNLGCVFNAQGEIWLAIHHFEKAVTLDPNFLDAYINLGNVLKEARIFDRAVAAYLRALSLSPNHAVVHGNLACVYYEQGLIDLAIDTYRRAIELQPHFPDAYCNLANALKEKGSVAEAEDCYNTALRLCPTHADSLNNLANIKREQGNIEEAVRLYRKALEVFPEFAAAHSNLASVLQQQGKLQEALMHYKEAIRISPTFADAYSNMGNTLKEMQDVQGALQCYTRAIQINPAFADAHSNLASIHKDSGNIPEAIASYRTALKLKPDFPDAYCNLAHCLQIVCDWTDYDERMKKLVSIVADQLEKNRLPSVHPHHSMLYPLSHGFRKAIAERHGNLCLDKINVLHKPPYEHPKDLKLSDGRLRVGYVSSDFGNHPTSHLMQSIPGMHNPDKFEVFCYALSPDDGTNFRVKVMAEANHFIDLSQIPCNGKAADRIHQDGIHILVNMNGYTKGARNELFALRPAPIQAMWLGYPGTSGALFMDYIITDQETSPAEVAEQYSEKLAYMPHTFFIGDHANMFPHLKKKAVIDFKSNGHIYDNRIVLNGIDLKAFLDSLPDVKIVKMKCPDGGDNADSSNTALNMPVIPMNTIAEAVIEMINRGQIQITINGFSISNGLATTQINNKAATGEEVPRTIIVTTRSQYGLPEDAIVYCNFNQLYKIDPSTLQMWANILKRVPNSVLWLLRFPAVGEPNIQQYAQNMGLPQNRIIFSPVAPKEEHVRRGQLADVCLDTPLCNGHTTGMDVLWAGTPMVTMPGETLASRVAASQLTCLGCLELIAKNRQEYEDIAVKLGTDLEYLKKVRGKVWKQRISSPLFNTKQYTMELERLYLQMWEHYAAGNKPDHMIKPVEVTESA
Read-out: binding
Method: phage display NGS
Molecule type: peptide
Tested at: concentration not given
Baseline: input library
Quantity: enrichment fold change
SQYVSLLPQYQITLE: 2.49
TTHYLPVYQIELKNA: 2.62
SFPHRVHHEHSYYEH: 8.88

Other studies, line by line
PhoQ, residues 284 288 289 292 302 303 SCEHLI
fold induction (PhoP, residues 12 14 15 18 19 QWHVF (Escherichia coli, UniProt P23836); Sort-seq, measured: YFP reporter; E. coli; PhoQ-PhoP variant library, with: 10 µM Mg2+; baseline: high Mg2+ state, higher = stronger signaling): 3.59

For quick reference, copied from above (series 1):
TSVRRALFTFGSD [G10F]: 2.21
TSVRRALFTQGSD [G10Q]: 4.04
